Measurements from different studies.
Compare with care: the assays were run in different laboratories. ± marks the error that the study gave.

C[C@@H]1CC[C@H]2[C@@H](C)CO[C@@H]3O[C@@]4(C)CC[C@@H]1[C@]32OO4 has an AUC(0-inf) of 3160 ng·h/mL (male Sprague-Dawley rat, plasma; oral, 100 mg/kg).
COc1ccc(F)cc1S(=O)(=O)Nc1cnc2c(c1)C(=O)NCCO2 has an AUC(0-inf) of 335 ± 76 ng·h/mL (C57BL/6J mice, plasma; oral, 1 mg/kg).
For CC[C@H](C)[C@H](NC(=O)[C@H](CCC(=O)O)NC(=O)[C@H](CCC(=O)O)NC(=O)[C@H](Cc1ccccc1)NC(=O)[C@H](CC(=O)O)NC(=O)CNC(=O)[C@H](CC(N)=O)NC(=O)CNC(=O)CNC(=O)CNC(=O)CNC(=O)[C@@H]1CCCN1C(=O)[C@H](CCCNC(=N)N)NC(=O)[C@@H]1CCCN1C(=O)[C@H](N)Cc1ccccc1)C(=O)N1CCC[C@H]1C(=O)N[C@@H](CCC(=O)O)C(=O)N[C@@H](CCC(=O)O)C(=O)N[C@@H](Cc1ccc(O)cc1)C(=O)N[C@@H](CC(C)C)C(=O)O, the AUC(0-inf) was 1510 ng·h/mL (male human, plasma; intravenous, 0.5 mg/kg, single dose, healthy volunteers).
For O=c1cc(-c2ccccc2)oc2c(Br)c(O)c(O)c(O)c12, the AUC(0-inf) was 1110 ng·h/mL (C57BL/6 mouse, plasma; oral, 50 mg/kg, single dose).
CC1(C)C(=O)N(c2ccc(C#N)c(C(F)(F)F)c2)C(=S)N1c1ccc(C(=O)O)c(F)c1 gave an AUC(0-inf) of 55800 ± 13200 ng·h/mL (human, male, plasma; oral, 160 mg, single dose, after high-fat meal).
For CCCCCCCC(=O)NC[C@H](NC(=O)[C@H](CO)NC(=O)CN)C(=O)N[C@@H](Cc1ccccc1)C(=O)N[C@@H](CC(C)C)C(=O)N[C@@H](CO)C(=O)N1CCC[C@H]1C(=O)N[C@@H](CCC(=O)O)C(=O)N[C@@H](Cc1c[nH]cn1)C(=O)N[C@@H](CCC(N)=O)C(=O)N[C@@H](CCCNC(=N)N)C(=O)N[C@H](C(=O)N[C@@H](CCC(N)=O)C(=O)N[C@H](C(=O)N[C@@H](CCCNC(=N)N)C(=O)N1CCC[C@H]1C(=O)N1CCC[C@H]1C(=O)N[C@@H](Cc1c[nH]cn1)C(=O)N[C@@H](CCCCN)C(=O)N[C@@H](C)C(=O)N1CCC[C@H]1C(=O)N[C@@H](Cc1c[nH]cn1)C(=O)N[C@H](C(=O)N[C@H](C(=O)O)C(C)C)C(C)C)C(C)C)C(C)C, the AUC(0-inf) was 268 ng·h/mL (mouse, plasma; subcutaneous, 7.2 mg/kg).
CC[C@H](C)C(=O)N1CCC(NC(=O)Nc2ccc(OC(F)(F)F)c(F)c2)CC1 gave an AUC(0-inf) of 6960 ng·h/mL (human, plasma; oral, 16 mg, single dose, healthy volunteers).
The AUC(0-inf) of CCc1c2c(nc3ccc(OC4OC(C(=O)O)C(O)C(O)C4O)cc13)-c1cc3c(c(=O)n1C2)COC(=O)C3(O)CC (stereo not drawn) is reported as 39 ng·h/mL (human patients, plasma; intravenous, 3 mg/m^2 of parent drug).
With CC(C)[C@H]1NC(=O)C[C@H]2/C=C/CCSSC[C@@H](NC1=O)C(=O)N[C@H](Cc1cccc3ccccc13)C(=O)NCC(=O)O2 the AUC(0-inf) was 3.5 ng·h/mL (nude mouse, blood; oral, 24 mg/kg).

Repeated from above:
The AUC(0-inf) of CCc1c2c(nc3ccc(OC4OC(C(=O)O)C(O)C(O)C4O)cc13)-c1cc3c(c(=O)n1C2)COC(=O)C3(O)CC (stereo not drawn) is reported as 39 ng·h/mL (human patients, plasma; intravenous, 3 mg/m^2 of parent drug).
